Measured values collected from several papers.
Lines come from different studies, so protocols differ. Values joined by “and” are separate records of one study, mostly repeats; a detail may differ. ± marks the error that the study gave.
VIM-2: Metallo-beta-lactamase VIM-2 (VIM-2, Escherichia coli, UniProt Q5U7L7)
aacA4: Aminoglycoside N(6')-acetyltransferase type 1 (aacA4, Klebsiella pneumoniae, UniProt P19650)
Inosine-5'-monophosphate dehydrogenase: Inosine-5'-monophosphate dehydrogenase (Cryptosporidium parvum, UniProt Q8T6T2)
Leucine--tRNA ligase: Leucine--tRNA ligase (Staphylococcus aureus, UniProt Q2FXH2)

Protein sequences, listed by entry. Tags and fused reporters are not part of them. Residues count along the entry.
UniProt Q8T6T2, whole entry: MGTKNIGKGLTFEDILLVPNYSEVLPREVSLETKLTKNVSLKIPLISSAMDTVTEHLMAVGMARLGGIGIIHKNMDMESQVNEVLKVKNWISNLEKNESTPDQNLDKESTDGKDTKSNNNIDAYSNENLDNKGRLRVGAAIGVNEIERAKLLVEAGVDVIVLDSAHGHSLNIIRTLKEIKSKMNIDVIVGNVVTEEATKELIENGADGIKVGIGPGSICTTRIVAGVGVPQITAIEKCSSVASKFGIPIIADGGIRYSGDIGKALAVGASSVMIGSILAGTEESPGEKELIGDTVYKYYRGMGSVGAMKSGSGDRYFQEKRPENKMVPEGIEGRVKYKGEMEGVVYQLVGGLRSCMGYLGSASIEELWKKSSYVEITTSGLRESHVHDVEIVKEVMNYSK
UniProt O00519, whole entry: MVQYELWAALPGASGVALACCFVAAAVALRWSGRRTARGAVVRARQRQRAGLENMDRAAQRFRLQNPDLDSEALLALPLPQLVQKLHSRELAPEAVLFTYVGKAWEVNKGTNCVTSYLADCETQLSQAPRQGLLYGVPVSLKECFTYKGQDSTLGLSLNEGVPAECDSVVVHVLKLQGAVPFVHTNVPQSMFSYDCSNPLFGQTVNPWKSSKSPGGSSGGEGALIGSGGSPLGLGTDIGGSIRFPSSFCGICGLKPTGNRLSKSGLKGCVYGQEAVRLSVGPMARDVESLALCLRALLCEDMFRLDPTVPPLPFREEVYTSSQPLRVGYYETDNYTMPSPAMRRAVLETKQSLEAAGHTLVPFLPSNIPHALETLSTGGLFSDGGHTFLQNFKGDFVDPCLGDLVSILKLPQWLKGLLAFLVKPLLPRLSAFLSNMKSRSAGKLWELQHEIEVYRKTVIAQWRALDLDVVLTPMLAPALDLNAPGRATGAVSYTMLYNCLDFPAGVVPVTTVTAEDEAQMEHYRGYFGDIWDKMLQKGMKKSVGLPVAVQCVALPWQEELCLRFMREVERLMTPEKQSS
UniProt P9WNX1, whole entry: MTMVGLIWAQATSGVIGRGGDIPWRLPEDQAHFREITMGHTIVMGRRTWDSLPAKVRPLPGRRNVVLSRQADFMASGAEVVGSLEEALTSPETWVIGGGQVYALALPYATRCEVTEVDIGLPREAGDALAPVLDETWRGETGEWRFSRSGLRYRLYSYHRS
UniProt P68400, whole entry: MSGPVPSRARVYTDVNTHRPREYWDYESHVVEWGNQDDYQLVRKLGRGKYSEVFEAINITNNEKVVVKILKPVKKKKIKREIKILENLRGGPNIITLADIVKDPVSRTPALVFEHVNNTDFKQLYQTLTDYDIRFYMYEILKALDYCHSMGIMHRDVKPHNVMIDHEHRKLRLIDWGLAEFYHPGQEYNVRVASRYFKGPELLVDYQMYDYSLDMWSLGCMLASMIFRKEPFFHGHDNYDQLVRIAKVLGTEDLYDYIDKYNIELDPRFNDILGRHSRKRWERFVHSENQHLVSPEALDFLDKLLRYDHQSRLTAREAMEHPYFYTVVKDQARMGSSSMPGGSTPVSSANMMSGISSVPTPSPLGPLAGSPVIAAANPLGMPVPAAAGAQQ
UniProt Q8I273, 168-734 limits assumed: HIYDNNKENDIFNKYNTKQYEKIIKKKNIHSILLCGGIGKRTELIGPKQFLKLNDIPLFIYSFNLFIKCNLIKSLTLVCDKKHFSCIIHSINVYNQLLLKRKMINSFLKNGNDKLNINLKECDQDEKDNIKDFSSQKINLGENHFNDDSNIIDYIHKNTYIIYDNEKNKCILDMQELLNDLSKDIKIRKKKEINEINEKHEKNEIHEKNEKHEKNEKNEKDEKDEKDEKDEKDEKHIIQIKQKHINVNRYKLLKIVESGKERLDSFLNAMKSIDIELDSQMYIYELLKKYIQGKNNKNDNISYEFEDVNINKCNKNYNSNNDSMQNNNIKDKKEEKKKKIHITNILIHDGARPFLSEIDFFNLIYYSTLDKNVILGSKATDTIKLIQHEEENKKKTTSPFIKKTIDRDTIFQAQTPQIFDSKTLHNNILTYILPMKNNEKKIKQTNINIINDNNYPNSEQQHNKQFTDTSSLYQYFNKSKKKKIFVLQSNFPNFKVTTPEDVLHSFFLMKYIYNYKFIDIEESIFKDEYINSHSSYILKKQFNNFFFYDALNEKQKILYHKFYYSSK
UniProt P26918, whole entry, looked up: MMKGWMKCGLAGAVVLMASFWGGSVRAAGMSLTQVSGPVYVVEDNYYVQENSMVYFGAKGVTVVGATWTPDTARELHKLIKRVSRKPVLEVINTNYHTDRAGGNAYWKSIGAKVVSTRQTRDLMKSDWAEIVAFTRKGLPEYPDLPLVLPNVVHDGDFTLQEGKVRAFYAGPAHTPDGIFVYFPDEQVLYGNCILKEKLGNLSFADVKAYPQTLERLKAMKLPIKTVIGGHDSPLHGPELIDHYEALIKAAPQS
UniProt Q8IJ22, 1-359: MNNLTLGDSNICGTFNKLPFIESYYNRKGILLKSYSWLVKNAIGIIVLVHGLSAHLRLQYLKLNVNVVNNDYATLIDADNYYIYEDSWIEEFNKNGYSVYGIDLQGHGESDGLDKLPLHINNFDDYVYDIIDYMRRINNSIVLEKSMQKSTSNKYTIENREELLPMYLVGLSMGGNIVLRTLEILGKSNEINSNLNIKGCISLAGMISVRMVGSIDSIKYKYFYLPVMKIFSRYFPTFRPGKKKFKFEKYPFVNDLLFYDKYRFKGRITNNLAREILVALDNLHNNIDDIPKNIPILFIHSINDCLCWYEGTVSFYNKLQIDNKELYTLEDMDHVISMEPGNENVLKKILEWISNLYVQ
UniProt Q4JH30, 1-414 limits assumed: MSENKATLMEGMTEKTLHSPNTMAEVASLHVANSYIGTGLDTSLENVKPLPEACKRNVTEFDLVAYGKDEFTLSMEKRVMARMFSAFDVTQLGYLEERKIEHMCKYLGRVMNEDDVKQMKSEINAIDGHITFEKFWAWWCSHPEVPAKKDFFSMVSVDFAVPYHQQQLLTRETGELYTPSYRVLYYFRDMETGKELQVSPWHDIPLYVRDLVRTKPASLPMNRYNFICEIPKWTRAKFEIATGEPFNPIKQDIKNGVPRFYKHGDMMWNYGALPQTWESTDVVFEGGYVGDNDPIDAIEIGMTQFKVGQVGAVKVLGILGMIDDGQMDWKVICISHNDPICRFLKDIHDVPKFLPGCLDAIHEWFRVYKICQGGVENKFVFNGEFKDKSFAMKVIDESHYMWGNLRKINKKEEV
UniProt Q94K73, 54-429 limits assumed: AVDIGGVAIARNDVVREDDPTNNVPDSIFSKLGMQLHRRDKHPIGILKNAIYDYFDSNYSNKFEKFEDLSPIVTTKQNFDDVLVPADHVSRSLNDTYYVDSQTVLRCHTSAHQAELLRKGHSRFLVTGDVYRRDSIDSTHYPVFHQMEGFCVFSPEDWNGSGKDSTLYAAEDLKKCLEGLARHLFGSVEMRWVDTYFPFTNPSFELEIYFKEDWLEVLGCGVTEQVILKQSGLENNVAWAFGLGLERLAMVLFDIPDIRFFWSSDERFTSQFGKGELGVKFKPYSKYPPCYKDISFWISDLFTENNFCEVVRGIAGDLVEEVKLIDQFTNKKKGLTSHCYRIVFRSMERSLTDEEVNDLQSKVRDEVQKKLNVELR
UniProt P07949, 29-1114 limits assumed: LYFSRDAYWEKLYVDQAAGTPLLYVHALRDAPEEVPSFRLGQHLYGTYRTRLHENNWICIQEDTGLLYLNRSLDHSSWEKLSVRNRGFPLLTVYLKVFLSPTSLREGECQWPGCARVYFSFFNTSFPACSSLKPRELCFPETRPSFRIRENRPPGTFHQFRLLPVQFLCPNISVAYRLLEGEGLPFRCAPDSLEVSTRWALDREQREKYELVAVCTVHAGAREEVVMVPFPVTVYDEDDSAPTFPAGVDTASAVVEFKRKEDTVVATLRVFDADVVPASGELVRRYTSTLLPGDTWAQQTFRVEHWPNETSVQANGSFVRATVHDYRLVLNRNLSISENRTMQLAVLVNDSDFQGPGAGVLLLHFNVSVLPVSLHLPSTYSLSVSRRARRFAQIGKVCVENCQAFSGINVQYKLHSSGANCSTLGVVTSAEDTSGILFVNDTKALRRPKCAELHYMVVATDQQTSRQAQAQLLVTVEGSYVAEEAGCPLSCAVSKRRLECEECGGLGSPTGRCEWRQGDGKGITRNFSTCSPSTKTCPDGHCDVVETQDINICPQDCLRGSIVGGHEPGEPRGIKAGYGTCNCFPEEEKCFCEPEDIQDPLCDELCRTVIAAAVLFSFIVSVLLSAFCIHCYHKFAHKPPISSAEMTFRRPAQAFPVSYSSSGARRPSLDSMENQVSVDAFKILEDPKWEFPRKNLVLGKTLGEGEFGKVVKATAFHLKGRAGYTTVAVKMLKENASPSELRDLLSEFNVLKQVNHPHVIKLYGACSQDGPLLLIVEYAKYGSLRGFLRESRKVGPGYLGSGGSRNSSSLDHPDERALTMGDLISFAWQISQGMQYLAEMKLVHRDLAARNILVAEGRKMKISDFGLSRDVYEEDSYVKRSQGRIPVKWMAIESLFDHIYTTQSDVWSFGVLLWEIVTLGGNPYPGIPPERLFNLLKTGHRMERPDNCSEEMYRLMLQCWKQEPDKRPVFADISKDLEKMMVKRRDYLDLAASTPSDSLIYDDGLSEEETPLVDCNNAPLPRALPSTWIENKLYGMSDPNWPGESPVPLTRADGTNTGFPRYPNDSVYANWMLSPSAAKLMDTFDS
UniProt Q9H9B1, 1126-1243 limits assumed: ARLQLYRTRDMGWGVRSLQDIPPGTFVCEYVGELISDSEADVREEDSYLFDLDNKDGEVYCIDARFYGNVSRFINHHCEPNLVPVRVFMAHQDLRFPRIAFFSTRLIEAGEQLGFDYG
UniProt Q38F42, 1-925: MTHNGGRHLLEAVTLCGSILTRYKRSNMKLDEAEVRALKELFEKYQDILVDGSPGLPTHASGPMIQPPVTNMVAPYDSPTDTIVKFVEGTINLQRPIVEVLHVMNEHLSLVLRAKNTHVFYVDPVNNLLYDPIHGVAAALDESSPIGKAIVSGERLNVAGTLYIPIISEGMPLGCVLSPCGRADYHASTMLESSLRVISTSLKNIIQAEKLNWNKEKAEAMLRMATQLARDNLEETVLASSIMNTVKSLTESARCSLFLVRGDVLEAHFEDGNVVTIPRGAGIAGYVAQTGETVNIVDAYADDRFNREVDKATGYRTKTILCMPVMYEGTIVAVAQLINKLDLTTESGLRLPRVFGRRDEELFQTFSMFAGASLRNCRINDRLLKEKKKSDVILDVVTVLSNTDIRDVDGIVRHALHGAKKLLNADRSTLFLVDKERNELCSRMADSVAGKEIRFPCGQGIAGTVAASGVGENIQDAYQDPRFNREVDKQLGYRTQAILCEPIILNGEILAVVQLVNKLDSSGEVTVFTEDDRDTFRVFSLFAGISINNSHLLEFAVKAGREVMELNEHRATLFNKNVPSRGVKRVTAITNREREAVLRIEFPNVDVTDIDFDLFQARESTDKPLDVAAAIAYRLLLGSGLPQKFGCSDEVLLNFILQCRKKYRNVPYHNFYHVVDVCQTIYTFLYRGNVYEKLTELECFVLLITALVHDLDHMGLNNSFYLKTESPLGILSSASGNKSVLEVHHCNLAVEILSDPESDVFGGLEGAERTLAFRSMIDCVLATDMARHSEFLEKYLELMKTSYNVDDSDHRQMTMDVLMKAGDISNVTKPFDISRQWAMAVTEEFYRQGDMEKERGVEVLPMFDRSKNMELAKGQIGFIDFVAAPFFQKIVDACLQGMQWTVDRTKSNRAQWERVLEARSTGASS
UniProt Q9H3H5, whole entry: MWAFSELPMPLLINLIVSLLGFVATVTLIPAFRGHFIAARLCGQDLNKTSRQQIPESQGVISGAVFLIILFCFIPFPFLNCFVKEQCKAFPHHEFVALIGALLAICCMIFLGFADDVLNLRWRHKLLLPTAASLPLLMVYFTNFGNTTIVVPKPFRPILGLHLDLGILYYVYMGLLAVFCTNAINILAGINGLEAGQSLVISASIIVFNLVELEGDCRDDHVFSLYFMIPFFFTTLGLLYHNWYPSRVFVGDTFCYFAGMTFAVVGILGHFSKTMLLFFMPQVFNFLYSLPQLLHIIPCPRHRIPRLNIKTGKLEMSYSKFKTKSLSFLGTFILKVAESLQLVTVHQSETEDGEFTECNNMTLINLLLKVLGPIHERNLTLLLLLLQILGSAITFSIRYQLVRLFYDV
UniProt A3FQ16, 1-538: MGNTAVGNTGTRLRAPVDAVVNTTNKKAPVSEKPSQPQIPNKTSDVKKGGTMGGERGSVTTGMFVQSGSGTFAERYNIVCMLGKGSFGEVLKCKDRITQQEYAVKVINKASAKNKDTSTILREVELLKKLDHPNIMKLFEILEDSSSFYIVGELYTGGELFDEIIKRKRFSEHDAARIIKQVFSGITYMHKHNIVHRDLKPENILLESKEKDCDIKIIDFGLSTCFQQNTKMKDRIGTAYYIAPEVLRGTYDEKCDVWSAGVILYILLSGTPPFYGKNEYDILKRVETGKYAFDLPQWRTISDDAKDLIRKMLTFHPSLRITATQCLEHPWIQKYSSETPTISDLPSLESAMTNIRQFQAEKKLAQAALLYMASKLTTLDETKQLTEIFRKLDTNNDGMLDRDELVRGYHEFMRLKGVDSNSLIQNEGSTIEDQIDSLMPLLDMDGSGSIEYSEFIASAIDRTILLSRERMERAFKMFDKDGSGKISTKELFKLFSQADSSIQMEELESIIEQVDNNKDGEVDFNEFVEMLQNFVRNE

| Compound | target | test | test system | setting | IC50 |
| --- | --- | --- | --- | --- | --- |
| CC(C)OCc1nn[nH]c1CNS(=O)(=O)c1ccc(Cl)cc1 | VIM-2 | enzyme activity, inhibitor | – | together with: nitrocefin | 0.1 ± 0.1 µM |
| NC[C@@H](NC[C@@H]1CCCN1C[C@@H](CO)NC[C@@H](NCCC1CC2CCC1C2)c1ccccc1)c1ccccc1 (stereo partly shown) | aacA4 | acetyltransferase activity, inhibitor | – | – | 4.9 µM |
| [2H]C1(C(=O)Nc2ccc3cc(C(=O)O)ccc3c2)CCN(S(=O)(=O)c2ccc(C)cc2C)CC1 | FAAH (Homo sapiens, UniProt O00519) | – | – | pH 8, 37 °C, together with: OMP substrate 50 µM | 20 µM |
| Nc1nc(N)c2c(Cl)c(CNc3ccc(C(=O)O)cc3)ccc2n1 | folA (Mycobacterium tuberculosis, UniProt P9WNX1) | enzyme activity, inhibitor | – | Mycobacterium tuberculosis enzyme | 0.0087 µM |
| CC(C)CC(NC(=O)C1OC1C(=O)O)C(=O)NCCCCN=C(N)N (stereo not shown) | Papain (Carica papaya, UniProt P00784) | enzyme activity, inhibitor | – | – | 0.000159 µM |
| O=C(Cn1c(-c2nccs2)nc2ccccc21)Nc1ccc(Cl)cc1 | Inosine-5'-monophosphate dehydrogenase | enzyme activity, inhibitor, NADH fluorescence | recombinant enzyme | – | 0.03 ± 0.01 µM |
| Cc1ccc(N(C)c2cc(N(C)C3CC3)n3ncc(C#N)c3n2)cc1NC(=O)C1CC1 | CSNK2A1 (Homo sapiens, UniProt P68400) | inhibitor | – | – | > 10 µM |
| CC(Oc1ccccc1)C(=O)Nc1ccc(Cl)cc1 (stereo not shown) | Inosine-5'-monophosphate dehydrogenase | enzyme activity, inhibitor | – | corrected for open enzyme conformation | 0.66 µM |
| O=C(Cn1c(-c2cscn2)nc2ccccc21)Nc1ccc2ccccc2c1 | Inosine-5'-monophosphate dehydrogenase | enzyme activity, inhibitor, NADH fluorescence | recombinant enzyme | – | 0.0074 µM and 0.007 µM |
| CNC(=O)[C@@H]1Cc2c([nH]c3ccccc23)[C@@H](c2ccc(F)cc2Cl)N1 | 2-C-methyl-D-erythritol 4-phosphate cytidylyltransferase (Plasmodium falciparum, UniProt Q8I273) | enzyme activity, pyrophosphate fluorimetric | – | together with: 60 nM enzyme | 0.278 ± 0.027 µM |
| CN(C)c1cccc(Oc2cnc(Nc3ccccc3)nc2)c1 | Amyloid-beta precursor protein, Aβ42 with fibrinogen (APP, Homo sapiens, UniProt P05067) | AlphaLISA | – | – | 1.67 µM |
| C[C@H](CS)C(=O)N[C@H](Cc1c[nH]c2ccccc12)C(=O)O | Metallo-beta-lactamase type 2 (Aeromonas hydrophila, UniProt P26918) | enzyme activity, inhibitor | – | – | ~400 µM |
| C#CCOCCC(=O)N[C@H](Cc1ccccc1)C(=O)N[C@@H](Cc1ccccc1)C(=O)N[C@@H](CCCNC(=N)N)C(=O)CCl | Replicase polyprotein 1ab, main protease (rep, Severe acute respiratory syndrome coronavirus 2, UniProt P0DTD1) | enzyme activity, inhibitor | – | near enzyme concentration | 0.02 ± 0.002 µM |
| C=CC(=O)Nc1cc(-c2cn(C3CCCC3)c3ncnc(N)c23)ccc1Oc1ccccc1 | ERBB3 (Homo sapiens, UniProt P21860) | ATP-site binding, LanthaScreen TR-FRET | – | 3 h | 0.286 µM |
| O=S(=O)(NCc1[nH]nnc1CNC1CCCCC1)c1ccccc1 | VIM-2 | enzyme activity, inhibitor | – | approximate value | ~0.1 µM |
| O=[N+]([O-])c1ccc(S(=O)(=O)Nc2ccc3c(c2)B(O)OC3)cc1F | Leucine--tRNA ligase | – | – | – | > 100 µM |

| Compound | target | test | test system | setting | IC50 |
| --- | --- | --- | --- | --- | --- |
| CC(C)OCc1nn[nH]c1CNS(=O)(=O)c1ccccc1 | VIM-2 | enzyme activity, inhibitor | – | together with: nitrocefin | 0.85 ± 0.07 µM |
| CC1CCN(C(=O)n2ncc(C(O)(c3ccccc3)c3ccccc3)n2)CC1 | Monoacylglycerol lipase-like protein (Plasmodium falciparum, UniProt Q8IJ22) | enzyme activity, inhibitor | – | together with: 4-methylumbelliferyl octanoate 10 µM | 0.0154 µM |
| CCCC[C@H](CN)NC[C@@H]1CCCN1C[C@@H](CO)NC[C@@H](NCCc1ccc(-c2ccccc2)cc1)c1ccccc1 | aacA4 | acetyltransferase activity, inhibitor | – | – | 12.4 µM |
| CCCCn1cc[n+](CC(O)(P(=O)([O-])O)P(=O)(O)O)c1 (stereo not shown) | vacuolar soluble pyrophosphatase 1 (Trypanosoma cruzi, UniProt Q4JH30) | exopolyphosphatase activity, inhibitor, malachite green phosphate | – | 10 min, pH 6.5, 30 °C, together with: 100 µM polyphosphate | ~45 µM |
| C1=C(CCNCc2ccccc2)CCCC1 | Phenylalanine--tRNA ligase, chloroplastic/mitochondrial (Arabidopsis thaliana, UniProt Q94K73) | phenylalanine activation, inhibitor | – | – | > 300 mg/L |
| C=CC(=O)Nc1cc(-n2c(=O)ccc3cnc4ccc(-c5cn[nH]c5)cc4c32)ccc1C | EGFR (Homo sapiens, UniProt P00533, T790M) | kinase activity, inhibitor | – | – | 0.137 µM |
| COCCCn1nc(-c2ccc(CC(=O)Nc3cccc(F)c3)cc2)c2c(N)ncnc21 | RET (Homo sapiens, UniProt P07949) | inhibitor | – | – | 0.25 ± 0.07 µM |
| COc1cc2c(N(C)C)nc(NCCCN(C)C)nc2cc1OCCCCCN | Histone-lysine N-methyltransferase EHMT1, SET domain (EHMT1, Homo sapiens, UniProt Q9H9B1) | methyltransferase activity, inhibitor | – | 5 min, 30 °C, together with: H3 peptide 5 µM, SAM 100 µM | 75 µM |
| CCc1cc(-c2ccc3cnn(C)c3c2)cc2c(Nc3cccc(OC)c3)c(C(N)=O)cnc12 | cAMP phosphodiesterase B2 (Trypanosoma brucei, UniProt Q38F42) | enzyme activity, inhibitor | – | – | 5.6 ± 3.4 µM |
| [N-]=[N+]=CC(=O)[C@H](Cc1cccc([N+](=O)[O-])c1)NC(=O)OCc1ccccc1 | Neutrophil elastase (ELANE, Homo sapiens, UniProt P08246) | enzyme activity, inhibitor | – | together with: MeOSuc-AAPV-AMC substrate | > 40 µM |
| CO[C@H]1[C@H](O[C@H]([C@H]2O[C@@H](n3ccc(=O)[nH]c3=O)[C@H](O)[C@@H]2O)[C@H](NCCCNC(=O)[C@@H](NC(=O)[C@@H](NC(=O)N[C@H](C(=O)O)C(C)C)[C@@H]2CCNC(=N)N2)[C@@H](OC(=O)CCCCCCCCCCCCN(O)C(=N)N)C(C)C)C(N)=O)O[C@H](CN)[C@H]1O | UDP-N-acetylglucosamine--dolichyl-phosphate N-acetylglucosaminephosphotransferase (Homo sapiens, UniProt Q9H3H5) | enzyme activity, inhibitor | – | – | 0.16 ± 0.015 µM |
| COC(C)(C)Cn1cc(-c2ccc3cc(OC4CC4)ccc3c2)c2c(N)ncnc21 | Calmodulin-domain protein kinase 1, putative (Cryptosporidium parvum, UniProt A3FQ16) | enzyme activity, inhibitor, Kinase-Glo | – | together with: syntide-2 | 0.03 µM |
| COc1cccc(-c2cc(Nc3c(Nc4ccc(C(F)(F)F)cc4)c(=O)c3=O)ccc2OC)c1 | Heat shock protein HSP 90-alpha, with Aha1 (HSP90AA1, Homo sapiens, UniProt P07900) | Hsp90-Aha1 interaction, inhibitor, AlphaScreen | – | – | 2.66 ± 1.92 µM |
| O=S(=O)(Nc1ccc2c(c1)B(O)OC2)c1ccccc1 | Leucine--tRNA ligase | – | – | – | 94 ± 2 µM |
| COC(C)(C)Cn1nc(-c2ccc3cc(OC4CC4)ccc3c2)c2c(N)ncnc21 | CDPK1 (Toxoplasma gondii, UniProt Q9BJF5) | enzyme activity, inhibitor, Kinase-Glo | – | together with: syntide-2 | 1.66 µM |

A few entries again:
| Compound | target | test | test system | setting | IC50 |
| --- | --- | --- | --- | --- | --- |
| COC(C)(C)Cn1cc(-c2ccc3cc(OC4CC4)ccc3c2)c2c(N)ncnc21 | Calmodulin-domain protein kinase 1, putative (Cryptosporidium parvum, UniProt A3FQ16) | enzyme activity, inhibitor, Kinase-Glo | – | together with: syntide-2 | 0.03 µM |
| COc1cccc(-c2cc(Nc3c(Nc4ccc(C(F)(F)F)cc4)c(=O)c3=O)ccc2OC)c1 | Heat shock protein HSP 90-alpha, with Aha1 (HSP90AA1, Homo sapiens, UniProt P07900) | Hsp90-Aha1 interaction, inhibitor, AlphaScreen | – | – | 2.66 ± 1.92 µM |
| O=S(=O)(Nc1ccc2c(c1)B(O)OC2)c1ccccc1 | Leucine--tRNA ligase | – | – | – | 94 ± 2 µM |
